Measurements pooled from the literature.
Lines come from different studies, so protocols differ. Several values in a cell are separate wells, animals, samples, runs or records.

| SMILES | cell line | assay | setting | scale | endpoint | value |
| --- | --- | --- | --- | --- | --- | --- |
| CC12CCCC(NS(=O)(=O)c3ccccn3)(C1)C1CC(C)(C)C1CC2 (stereo not drawn) | HT-29 | cell growth or viability, CCK-8 | 10 µM |  | inhibition | < 50% |
| O=C(C[Se]C(=O)c1cc2ccccc2s1)Nc1cccc(C(F)(F)F)c1 | NCI60 leukemia subpanel | cell growth | 10 µM, 48 h, one-dose |  | mean growth percent | -81% |
| O=S(=O)(N[C@H]1CCO[C@@H](C2c3ccccc3CCc3ccccc32)C1)c1ccc(OC(F)(F)F)cc1 | D341 | immunoblot | concentration not given, 72 h |  | cleaved caspase 9 level | increased |
| CCC(=CCc1c(O)cc2c(c1O)C(=O)CC(c1cccc(O)c1OC)O2)CC (stereo not drawn) | HeLa | cell growth or viability, MTT | 50 µM, 48 h |  | inhibition | 76% |
| C[C@@H]1CC[C@@H]([C@@](O)(CNCc2ccc(F)cc2)COCc2ccccc2)[C@H](OCc2ccccc2)C1 | HeLa | cell growth or viability, MTT | 30 µM, 72 h |  | inhibition | 97.8% |
| CN1CCCNC(=O)c2cccc(c2)C(=O)NCCCN(C)CCCNc2cccc3c2C(=O)c2cccc(c2C3=O)NCCC1 | SAS | RNA-Seq, measured: WDR81 mRNA | 1 µM, 6 h | relative to: untreated cells | log2 fold change | 1.18 |
| CC(=O)N1C[C@H](O)C[C@H]1C(=O)N[C@H](C(=O)N[C@@H](CO)C(=O)N[C@@H](CC(=O)O)C(=O)COC(=O)c1c(C)cccc1C)C(C)C | THP-1 cells, LPS-primed | pyroptosis, LDH release | 25 µM, LPS 1 µg/mL, 4 h, with: nigericin 5 µM, 2 h |  | cell lysis | 56.3% |
| Cn1ncc2cc(-c3cncc(Cl)c3N3CCC4(CCNC4=O)CC3)ccc21 | LS174T | gene expression, microarray, measured: POU2AF1 (BOB1) mRNA | concentration not given, 4 h | relative to: untreated cells | log2 fold change | 1.38 |
| COC1CCN(C(=O)/C=C/c2nn(Cc3cccc(C(F)(F)F)c3)c3nc(NCc4ccccc4)ncc23)CC1 | FLO-1 | cell growth or viability, resazurin | 5 days |  | EC50 | > 30000 nM |
| COc1ccccc1-c1ccncc1C(=O)Nc1nnc(OCc2ccc(Cl)cc2)s1 | DLD-1 BRCA2-/- |  | 8 µM, single replicate |  | colony count | 4 and 7 and 5 and 6 |
| CNS(=O)(=O)Nc1nccc(Cc2c(C)c3ccc(Oc4ncccc4F)cc3oc2=O)c1F | LCLC-103H | cell viability | 7 days |  | IC50 | > 1000 nM |
| CN(C12CCCC(C)(CCC3C1CC3(C)C)C2)S(=O)(=O)c1ccccc1 (stereo not drawn) | HT-29 | cell growth or viability, CCK-8 | 10 µM |  | inhibition | < 50% |
| COc1ccc(C2CC(=O)c3c(cc(O)c(CC=C(C)C)c3O)O2)cc1 (stereo not drawn) | HeLa | cell growth or viability, MTT | 6.25 µM, 48 h |  | inhibition | 10.4% |
| CCN(CC)CC(=O)Nc1cccc(-n2cc(-c3ccc4ccc(-c5cn(-c6cccc(NC(=O)CN(CC)CC)c6)nn5)cc4c3)nn2)c1 | RCC4 | PCR angiogenesis array, measured: TIE1 | 5 x IC50, 6 h, normoxia | relative to: untreated | fold regulation | 1.18 fold |
| Cc1ncsc1-c1ccc(C(C)NC(=O)C2CC(O)CN2C(=O)C(NC(=O)CCCCCCCCCCN2CCCC(Nc3ncc(Cl)c(Nc4ccccc4S(=O)(=O)C(C)C)n3)C2)C(C)(C)C)cc1 (stereo not drawn) | 22Rv1 | RNA-seq, measured: SYTL2 mRNA | concentration not given | relative to: DMSO | log2 fold change | -1.59 |
| COc1ccc(Br)c2c1OC1=C(C(=O)CCC1)C2c1c[nH]c2ccccc12 (stereo not drawn) | 3T3-L1 mature adipocytes | lipolysis, Oil Red O staining | IC20 |  | mean lipid content | 0.596 OD492 |
| CCc1c(-c2ccc3[nH]ncc3c2)cnc(N)c1-c1ccc(O)cc1 | CHP-212 resistant sublines, USP7 V517F heterozygous |  | 0.7812 µM |  | viability | 114% |
| CC(C)c1ccc(N(C)c2ccc3c(c2)OCC[C@H]3CNc2cnccc2C(=O)O)cc1 | SK-CO-1 | cell viability, CellTiter-Glo | 7 days |  | IC50 | 30.6 nM |
